Measured values gathered from unrelated publications.
Every numbered part comes from another study and shows a few of its results, in no order. Changes are numbered by the printed parent chain.

Sample 1 — method: protein-binding microarray; form: double-stranded DNA, one strand shown; matrix: in vitro; tested at: 250 nM; notes: 60-bp whole probe; added: salmon DNA 0.4 mg/ml; relative to: random background probes; reading: higher = stronger binding; constant ends, left off below: GCCTAGCAC … GTCTTGATTCGCTTGACGCTGCTG
Target: Interferon regulatory factor 7, full length, phosphomimetic (IRF7, Homo sapiens, UniProt Q92985, residues 1-503, S101K/S471D/S472D/S475D/S476D/S477D/S483D/S484D/S487D)
Chain of UniProt Q92985 (whole entry, unmodified, looked up): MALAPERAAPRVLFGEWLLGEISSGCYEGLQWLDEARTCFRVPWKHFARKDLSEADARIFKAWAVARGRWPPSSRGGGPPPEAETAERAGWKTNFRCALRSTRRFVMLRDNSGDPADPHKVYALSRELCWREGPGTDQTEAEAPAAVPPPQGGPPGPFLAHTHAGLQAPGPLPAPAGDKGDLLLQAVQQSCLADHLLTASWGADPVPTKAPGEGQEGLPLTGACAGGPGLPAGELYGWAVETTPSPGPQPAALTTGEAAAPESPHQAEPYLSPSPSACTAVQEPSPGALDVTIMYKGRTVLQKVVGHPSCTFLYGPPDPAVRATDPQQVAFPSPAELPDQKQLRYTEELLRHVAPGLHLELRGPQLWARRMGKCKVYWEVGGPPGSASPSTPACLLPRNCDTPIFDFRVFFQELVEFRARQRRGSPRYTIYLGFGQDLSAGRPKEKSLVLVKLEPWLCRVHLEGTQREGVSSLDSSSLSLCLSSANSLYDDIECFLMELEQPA
With `TTAGGTTTCCTTCTCCTTGAGTGCTAG` the log fluorescence was 2.66 z-score.
The log fluorescence of `GTAGGTCTCCTTTTCCTTTAGTGCTAG` is reported as 1.09 z-score.
The log fluorescence of `TCATGGTTGAACATGAAACTGTGCTAG` is reported as 0.118 z-score.
For `TTAGATATCATTCTCGATTAGTGCTAG`, the log fluorescence was 1.12 z-score.
With `TACTTTCTGAATGCTCCCCCTGTGCTA` the log fluorescence was 2.1 z-score.
`AGATGTATGAGCCTCTGTTTGTGCTAG` gave a log fluorescence of -0.272 z-score.

Sample 2 — target: CCND1, cyclin fold, Cln2 fusion (human); method: yeast growth competition, sequencing; matrix: yeast; notes: strong parent motif; relative to: not given; reading: higher = stronger binding
Starting sequence: SCAPER docking peptide (human); SNARRSLNFGGST; partner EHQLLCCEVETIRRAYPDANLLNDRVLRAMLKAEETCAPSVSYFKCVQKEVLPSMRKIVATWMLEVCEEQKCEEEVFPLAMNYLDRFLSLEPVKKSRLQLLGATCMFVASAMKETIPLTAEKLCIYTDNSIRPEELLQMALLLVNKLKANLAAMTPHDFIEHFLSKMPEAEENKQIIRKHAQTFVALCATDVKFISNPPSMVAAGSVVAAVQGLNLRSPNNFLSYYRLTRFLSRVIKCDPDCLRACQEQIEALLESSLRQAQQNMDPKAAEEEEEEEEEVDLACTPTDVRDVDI
For `S12K`, “normalised enrichment score” read 0.369.
For `L7F`, “normalised enrichment score” read 0.0659.
`G11C` — result for “normalised enrichment score”: 1.01.
`L7Q`: “normalised enrichment score” 0.355.
For `N8G`, “normalised enrichment score” read 0.149.
`S12L`: “normalised enrichment score” 1.12.
`N8T`: “normalised enrichment score” 1.18.
`L7M` — result for “normalised enrichment score”: 0.454.

Sample 3 — method: DHFR PCA, deep sequencing; matrix: yeast; added: (+)-ABA 710 µM; relative to: wild-type fitted maximum; reading: higher = stronger binding
Target: ABI1, truncated, D143A, DHFR fusion (Arabidopsis thaliana)
Notes: methotrexate growth selection, single substitutions
Starting sequence: PYL1, truncated, DHFR fusion (Arabidopsis thaliana); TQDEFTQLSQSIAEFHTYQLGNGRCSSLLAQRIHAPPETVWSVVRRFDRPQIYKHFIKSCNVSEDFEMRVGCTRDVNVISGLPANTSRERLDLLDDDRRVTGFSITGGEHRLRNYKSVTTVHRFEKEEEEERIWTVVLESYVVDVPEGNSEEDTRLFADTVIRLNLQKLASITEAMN; partner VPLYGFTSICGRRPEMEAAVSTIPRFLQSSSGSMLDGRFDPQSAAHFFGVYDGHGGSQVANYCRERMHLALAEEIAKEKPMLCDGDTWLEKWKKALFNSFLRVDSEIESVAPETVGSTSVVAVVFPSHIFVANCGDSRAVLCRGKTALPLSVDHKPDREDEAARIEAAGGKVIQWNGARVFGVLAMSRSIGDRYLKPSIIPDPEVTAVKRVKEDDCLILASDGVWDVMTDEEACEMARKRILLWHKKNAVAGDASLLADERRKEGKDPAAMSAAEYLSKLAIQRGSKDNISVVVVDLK
`K168N`: “relative binding score” 110%.
For `K168V`, “relative binding score” read 93.3%.
Under “relative binding score”, `I52Q` is recorded as 100%.
`I57K` — result for “relative binding score”: -7.68%.
For `E64W`, “relative binding score” read 94.1%.
`I79Q`: “relative binding score” 107%.

Mixed results
For `PhoQ, residues 284 288 289 292 302 303 NLGVHL`, the fold induction was 2.51 (PhoP, residues 12 14 15 18 19 SMASL (Escherichia coli, UniProt P23836); Sort-seq, measured: YFP reporter; E. coli; PhoQ-PhoP variant library, added: 10 µM Mg2+; relative to: high Mg2+ state, higher = stronger signaling).

For quick reference, copied from above (sample 1):
With `TTAGGTTTCCTTCTCCTTGAGTGCTAG` the log fluorescence was 2.66 z-score.
The log fluorescence of `GTAGGTCTCCTTTTCCTTTAGTGCTAG` is reported as 1.09 z-score.
